Measured values of several laboratories.

CC(C)c1c(C(=O)Nc2ccccc2)c(-c2ccccc2)c(-c2ccc(F)cc2)n1CC[C@@H](O)C[C@@H](O)CC(=O)O — subjects with adverse event (refers to: Vertigo; healthy human; oral, dose not given): 0%
CC(=O)CC(c1ccccc1)c1c(O)c2ccccc2oc1=O (stereo not drawn) — subjects nervous system disorders (human; concentration not given, trial 1): 6%
CN1C(=O)[C@@H](NC(=O)c2nnc(Cc3ccccc3)[nH]2)COc2cccnc21 — subjects with headache (human, fasted; oral, 400 mg single dose): 0%
C=C(C)[C@@H]1CC[C@]2(NCCN3CCS(=O)(=O)CC3)CC[C@]3(C)[C@H](CC[C@@H]4[C@@]5(C)CC=C(C6=CC[C@@](CF)(C(=O)O)CC6)C(C)(C)[C@@H]5CC[C@]43C)[C@@H]12 — subjects with nervous system disorders (healthy human volunteers; oral, 500 mg, 7 days): 0%
COC(=O)N[C@H](C(=O)N1CCC[C@H]1c1ncc(-c2cc(F)c3c(c2)O[C@@H](c2cnc(C4CC4)s2)n2c-3cc3cc(-c4cnc([C@@H]5CCCN5C(=O)[C@@H](NC(=O)OC)C(C)C)[nH]4)ccc32)[nH]1)C(C)C — subjects with procedural dizziness (healthy adult human; oral, 180 mg, 6 days, compound alone): 0%
C=CC(=O)NC1CCN(c2ncc3ncnc(Nc4ccc(Oc5ccc6c(c5)ncn6C)c(C)c4)c3n2)CC1 — subjects with adverse events (healthy male human; oral, 60 mg, 2 weeks, maximum CTCAE grade 5): 0%
C[C@H]1CN(C(=O)CC#N)[C@]12CCN(c1ncnc3[nH]ccc13)C2 — subjects with Nausea (healthy human; oral, dose not given): 3.1%
CC(C)(C(=O)N1CCOc2c(C#N)cncc2C1)C(F)F — subjects with TEAE (refers to: vessel puncture site haemorrhage; human, both sexes; oral, 20 mg once daily, 14 days, multiple ascending dose): 0%
O=C(COc1ccc(Cl)cc1)NC12CC(c3nnc([C@H]4C[C@@H](OC(F)(F)F)C4)o3)(C1)C2 — subjects with mild TEAE (humans; concentration not given): 57.1%
CC(=O)N(C)[C@H]1CCN(C(=O)c2cnc3c(c2)C[C@](C)(c2ccc(F)cc2)N3)C1 — subjects with any AE (healthy male human; oral, dose not given, all doses pooled): 70.8%
CN(Cc1cnc2nc(N)nc(N)c2n1)c1ccc(C(=O)N[C@@H](CCC(=O)O)C(=O)O)cc1 — subjects with adverse event (refers to: Headache; healthy human; oral, dose not given): 0%
CC[C@H](C)[C@H](NC(=O)[C@H](Cc1ccccc1)NC(=O)[C@H](CCC(=O)O)NC(=O)[C@H](CCCCNC(=O)COCCOCCNC(=O)COCCOCCNC(=O)CC[C@H](NC(=O)CCCCCCCCCCCCCCCCC(=O)O)C(=O)O)NC(=O)[C@H](C)NC(=O)[C@H](C)NC(=O)[C@H](CCC(N)=O)NC(=O)CNC(=O)[C@H](CCC(=O)O)NC(=O)[C@H](CC(C)C)NC(=O)[C@H](Cc1ccc(O)cc1)NC(=O)[C@H](CO)NC(=O)[C@H](CO)NC(=O)[C@@H](NC(=O)[C@H](CC(=O)O)NC(=O)[C@H](CO)NC(=O)[C@@H](NC(=O)[C@H](Cc1ccccc1)NC(=O)[C@@H](NC(=O)CNC(=O)[C@H](CCC(=O)O)NC(=O)C(C)(C)NC(=O)[C@@H](N)Cc1cnc[nH]1)[C@@H](C)O)[C@@H](C)O)C(C)C)C(=O)N[C@@H](C)C(=O)N[C@@H](Cc1c[nH]c2ccccc12)C(=O)N[C@@H](CC(C)C)C(=O)N[C@H](C(=O)N[C@@H](CCCNC(=N)N)C(=O)NCC(=O)N[C@@H](CCCNC(=N)N)C(=O)NCC(=O)O)C(C)C — subjects withdrawn for adverse events (healthy human; subcutaneous, 0.25 to 1.5 mg weekly, 16 weeks): 2.4%
Cc1cc(-c2nccc3c2ccn3CC(=O)Nc2ccc(-c3cnccn3)cn2)ccn1 — subjects with any IMP-related TEAE (human; MAD part, 5 mg once daily): 25%
CN(C)C(=N)N=C(N)N — subjects with adverse event (refers to: any adverse event; healthy human; oral, dose not given; relative to: subjects): 10%
C[C@@H](N)c1cc(Cl)ccc1Cn1c(=S)[nH]c(=O)c2[nH]ccc21 — subjects with adverse events (human matched controls; oral, 2.5 mg single dose): 20%
